# Results pooled from the literature.
# A part holds a random share of what one study measured.
# UniProt P06493, sequence (whole entry, looked up): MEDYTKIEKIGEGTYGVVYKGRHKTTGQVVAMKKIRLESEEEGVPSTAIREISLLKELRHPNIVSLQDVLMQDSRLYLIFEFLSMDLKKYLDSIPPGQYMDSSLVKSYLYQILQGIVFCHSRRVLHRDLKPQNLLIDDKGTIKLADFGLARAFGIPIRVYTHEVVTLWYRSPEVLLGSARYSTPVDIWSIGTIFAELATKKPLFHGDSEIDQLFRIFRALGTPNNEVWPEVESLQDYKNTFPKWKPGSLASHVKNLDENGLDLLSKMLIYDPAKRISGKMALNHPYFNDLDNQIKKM
# UniProt Q16816, sequence (whole entry, looked up): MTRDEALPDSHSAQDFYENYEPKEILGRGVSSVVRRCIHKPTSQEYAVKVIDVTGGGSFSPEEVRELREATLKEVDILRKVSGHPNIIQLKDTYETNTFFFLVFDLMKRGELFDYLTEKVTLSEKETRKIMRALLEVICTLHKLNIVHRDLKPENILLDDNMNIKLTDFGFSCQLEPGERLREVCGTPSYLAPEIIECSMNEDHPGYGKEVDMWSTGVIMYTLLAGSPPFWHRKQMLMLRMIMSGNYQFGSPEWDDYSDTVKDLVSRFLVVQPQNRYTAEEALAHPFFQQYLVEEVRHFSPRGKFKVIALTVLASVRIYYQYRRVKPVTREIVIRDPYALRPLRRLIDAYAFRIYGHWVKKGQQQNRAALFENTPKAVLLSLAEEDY
# UniProt P07332, sequence (whole entry, looked up): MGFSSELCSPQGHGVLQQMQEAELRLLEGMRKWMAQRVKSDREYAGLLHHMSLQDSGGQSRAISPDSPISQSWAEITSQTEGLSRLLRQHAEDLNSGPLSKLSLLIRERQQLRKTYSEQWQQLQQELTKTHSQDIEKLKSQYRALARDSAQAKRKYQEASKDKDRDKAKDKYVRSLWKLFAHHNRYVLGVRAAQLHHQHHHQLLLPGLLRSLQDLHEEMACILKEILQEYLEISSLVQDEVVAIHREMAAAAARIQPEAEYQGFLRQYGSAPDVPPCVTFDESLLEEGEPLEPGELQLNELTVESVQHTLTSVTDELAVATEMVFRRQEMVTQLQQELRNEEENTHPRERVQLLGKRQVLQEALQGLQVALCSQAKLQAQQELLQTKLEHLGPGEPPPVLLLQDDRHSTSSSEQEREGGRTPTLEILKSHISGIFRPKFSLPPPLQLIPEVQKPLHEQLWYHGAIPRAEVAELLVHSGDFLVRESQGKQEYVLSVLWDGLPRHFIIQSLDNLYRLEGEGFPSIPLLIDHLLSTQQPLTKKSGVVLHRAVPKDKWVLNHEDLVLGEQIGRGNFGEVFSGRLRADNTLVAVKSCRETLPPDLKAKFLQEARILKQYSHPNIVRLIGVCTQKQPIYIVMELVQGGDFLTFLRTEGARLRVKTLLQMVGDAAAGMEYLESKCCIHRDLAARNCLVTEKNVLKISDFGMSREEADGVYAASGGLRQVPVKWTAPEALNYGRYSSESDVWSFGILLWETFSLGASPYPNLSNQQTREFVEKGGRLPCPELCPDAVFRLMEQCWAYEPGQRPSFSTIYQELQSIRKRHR
# UniProt Q9UEE5, sequence (whole entry, looked up): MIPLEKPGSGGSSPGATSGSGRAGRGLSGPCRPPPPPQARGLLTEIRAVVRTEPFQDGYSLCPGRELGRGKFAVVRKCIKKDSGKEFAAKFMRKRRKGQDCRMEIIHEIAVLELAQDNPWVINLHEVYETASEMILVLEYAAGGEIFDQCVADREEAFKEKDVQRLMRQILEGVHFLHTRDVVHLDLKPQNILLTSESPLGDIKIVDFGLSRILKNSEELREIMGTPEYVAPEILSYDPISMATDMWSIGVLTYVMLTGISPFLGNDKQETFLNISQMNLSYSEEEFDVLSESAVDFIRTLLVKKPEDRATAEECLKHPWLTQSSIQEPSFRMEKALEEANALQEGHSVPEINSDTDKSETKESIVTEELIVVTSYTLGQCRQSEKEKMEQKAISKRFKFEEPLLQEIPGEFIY
# UniProt P00519, sequence (whole entry, looked up): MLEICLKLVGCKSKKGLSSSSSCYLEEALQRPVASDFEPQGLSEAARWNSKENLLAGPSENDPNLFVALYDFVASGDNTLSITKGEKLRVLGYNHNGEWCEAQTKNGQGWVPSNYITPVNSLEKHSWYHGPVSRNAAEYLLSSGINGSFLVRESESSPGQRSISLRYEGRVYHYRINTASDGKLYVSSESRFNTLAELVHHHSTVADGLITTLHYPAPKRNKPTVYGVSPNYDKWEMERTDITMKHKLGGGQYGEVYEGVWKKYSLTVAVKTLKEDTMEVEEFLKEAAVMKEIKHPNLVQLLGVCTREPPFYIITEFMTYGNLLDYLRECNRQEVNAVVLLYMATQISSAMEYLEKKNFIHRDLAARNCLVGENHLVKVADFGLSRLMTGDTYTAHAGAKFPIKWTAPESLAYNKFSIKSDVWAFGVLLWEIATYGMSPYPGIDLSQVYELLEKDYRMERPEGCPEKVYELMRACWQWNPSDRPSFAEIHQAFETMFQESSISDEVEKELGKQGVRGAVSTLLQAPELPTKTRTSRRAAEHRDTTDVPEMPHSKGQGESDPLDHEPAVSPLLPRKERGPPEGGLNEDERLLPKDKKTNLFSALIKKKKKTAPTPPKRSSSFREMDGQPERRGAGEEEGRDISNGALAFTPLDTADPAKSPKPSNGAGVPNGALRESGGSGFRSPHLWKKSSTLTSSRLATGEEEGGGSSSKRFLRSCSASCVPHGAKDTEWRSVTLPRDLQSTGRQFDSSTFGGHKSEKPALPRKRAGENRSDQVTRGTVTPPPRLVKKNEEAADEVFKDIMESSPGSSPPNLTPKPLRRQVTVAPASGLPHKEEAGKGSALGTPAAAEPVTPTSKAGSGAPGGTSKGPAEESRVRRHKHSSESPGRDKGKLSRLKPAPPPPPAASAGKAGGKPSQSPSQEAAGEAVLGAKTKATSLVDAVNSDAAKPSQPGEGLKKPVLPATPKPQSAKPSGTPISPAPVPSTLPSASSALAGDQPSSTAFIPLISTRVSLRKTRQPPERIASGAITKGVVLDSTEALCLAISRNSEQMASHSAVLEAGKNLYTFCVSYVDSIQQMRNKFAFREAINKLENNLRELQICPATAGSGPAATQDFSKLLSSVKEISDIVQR
# UniProt Q8NE63, sequence (whole entry, looked up): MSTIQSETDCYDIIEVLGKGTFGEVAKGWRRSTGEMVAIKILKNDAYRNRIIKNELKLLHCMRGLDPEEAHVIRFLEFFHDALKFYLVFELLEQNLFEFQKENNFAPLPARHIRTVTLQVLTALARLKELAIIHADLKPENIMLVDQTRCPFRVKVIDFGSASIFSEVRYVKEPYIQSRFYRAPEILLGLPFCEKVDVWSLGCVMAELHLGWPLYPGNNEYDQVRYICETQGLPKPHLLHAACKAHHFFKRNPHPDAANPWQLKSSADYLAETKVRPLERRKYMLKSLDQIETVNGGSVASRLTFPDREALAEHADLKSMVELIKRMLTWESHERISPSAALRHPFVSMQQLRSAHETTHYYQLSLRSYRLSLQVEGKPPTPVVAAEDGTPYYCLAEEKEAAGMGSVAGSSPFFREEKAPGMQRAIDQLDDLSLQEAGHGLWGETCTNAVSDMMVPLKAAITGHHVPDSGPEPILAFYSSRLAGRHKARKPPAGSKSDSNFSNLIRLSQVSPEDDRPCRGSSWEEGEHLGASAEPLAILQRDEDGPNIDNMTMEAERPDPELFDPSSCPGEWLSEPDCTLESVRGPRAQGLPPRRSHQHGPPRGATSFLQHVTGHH
# UniProt P11802, sequence (whole entry, looked up): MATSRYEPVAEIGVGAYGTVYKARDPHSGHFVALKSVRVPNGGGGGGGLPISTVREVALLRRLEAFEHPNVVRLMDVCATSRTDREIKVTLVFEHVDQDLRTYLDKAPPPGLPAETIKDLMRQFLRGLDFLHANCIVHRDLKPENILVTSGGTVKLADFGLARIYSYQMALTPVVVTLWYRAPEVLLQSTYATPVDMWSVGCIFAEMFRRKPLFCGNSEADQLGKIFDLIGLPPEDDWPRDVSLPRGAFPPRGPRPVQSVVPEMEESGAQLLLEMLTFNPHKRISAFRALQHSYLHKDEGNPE
# UniProt O94768, sequence (whole entry, looked up): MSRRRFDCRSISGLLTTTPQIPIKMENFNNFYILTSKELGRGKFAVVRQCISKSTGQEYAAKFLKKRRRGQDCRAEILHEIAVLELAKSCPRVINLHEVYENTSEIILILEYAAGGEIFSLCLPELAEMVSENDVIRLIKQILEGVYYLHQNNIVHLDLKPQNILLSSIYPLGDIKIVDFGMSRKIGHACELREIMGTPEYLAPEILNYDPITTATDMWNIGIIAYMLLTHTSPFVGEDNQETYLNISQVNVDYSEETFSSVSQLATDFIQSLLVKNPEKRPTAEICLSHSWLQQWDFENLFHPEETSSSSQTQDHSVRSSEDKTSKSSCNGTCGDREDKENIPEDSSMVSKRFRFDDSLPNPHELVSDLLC

# Series 1 — read-out: cell-free assay; method: competition with immobilised ligand; concentration: 1 µM
# SMILES: CN(C(=O)c1ccccc1)c1cc(N(C)c2ccc3c(c2)CCc2ccc(C(=O)NCCN4CCOCC4)cc2C3=O)ccc1F
target,remaining binding [%]
"FES (Homo sapiens, UniProt P07332)",89
"EGFR (Homo sapiens, UniProt P00533, G719C)",85
"STK17B (Homo sapiens, UniProt O94768)",100
"RET (Homo sapiens, UniProt P07949, V804M)",89
"PTK2 (Homo sapiens, UniProt Q05397)",91

# Series 2 — read-out: enzyme activity; mode: inhibitor; concentration: 10 µM
# Target: Calcium/calmodulin-dependent protein kinase type II subunit alpha (CAMK2A, Homo sapiens, UniProt Q9UQM7)
# UniProt Q9UQM7, sequence (whole entry, looked up): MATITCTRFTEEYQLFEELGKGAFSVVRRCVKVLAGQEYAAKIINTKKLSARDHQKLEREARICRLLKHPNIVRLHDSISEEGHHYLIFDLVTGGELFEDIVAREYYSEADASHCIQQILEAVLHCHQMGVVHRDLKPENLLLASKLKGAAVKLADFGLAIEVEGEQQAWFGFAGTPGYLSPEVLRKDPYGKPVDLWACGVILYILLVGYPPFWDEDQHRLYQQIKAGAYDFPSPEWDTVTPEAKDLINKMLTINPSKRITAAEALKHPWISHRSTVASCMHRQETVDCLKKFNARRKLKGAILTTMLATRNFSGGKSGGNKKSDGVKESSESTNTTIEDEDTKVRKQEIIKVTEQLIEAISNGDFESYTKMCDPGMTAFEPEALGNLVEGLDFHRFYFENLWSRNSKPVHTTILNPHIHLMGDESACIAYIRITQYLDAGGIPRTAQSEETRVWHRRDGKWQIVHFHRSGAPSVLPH
SMILES,inhibition
CCCCC/C=C\C/C=C\CCCCCCCC(=O)NCc1ccccc1,-6%
CC(C)(C)NC(=O)[C@H]1CC[C@H]2[C@@H]3CC=C4C=C(C(=O)O)CC[C@]4(C)[C@H]3CC[C@]12C,-7%
O=c1n(CCCN2CCN(c3cccc(Cl)c3)CC2)nc2ccccn12,-7%

# Series 3 — species: mouse; medium: microsomes or S9; concentration: 2 µM; time: 0.5 h
Compound,remaining compound
CCc1noc(CC)c1CC(=O)NCC1(CC)CCCCC1,0.037%
CC[C@H](C)[C@@H](CO)NC(=O)c1cc(C)nc(C)c1,72.2%
O=C(O)c1cccnc1C(=O)OCc1ccccc1,14.5%
OCCN(CC(O)c1ccc(F)c(F)c1)c1ccccc1 (stereo not shown),6.94%
COc1ccccc1Cn1ccc2nc3ccn(-c4ncn[nH]4)c(=O)c3cc2c1=O,60.2%
O=c1oc2ccccc2n1Cc1c(-c2ccc(F)cc2)nc2ccccn12,3.39%

# Series 4 — read-out: enzyme activity; mode: inhibitor; concentration: 0.5 µM; baseline: control
# SMILES: O=c1c2ccccc2[nH]c(=S)n1CCN1CCC(=C(c2ccc(F)cc2)c2ccc(F)cc2)CC1
target,remaining activity
"Cyclin-dependent kinase 1, with cyclin B (CDK1, Homo sapiens, UniProt P06493)",83%
"WNK3 (Homo sapiens, UniProt Q9BYP7)",107%
"PHKG1 (Homo sapiens, UniProt Q16816)",101%
"ABL1 (Homo sapiens, UniProt P00519)",106%
"STK17A (Homo sapiens, UniProt Q9UEE5)",103%
"RPS6KA5 (Homo sapiens, UniProt O75582)",105%
"HIPK2 (Homo sapiens, UniProt Q9H2X6)",105%
"MAP4K4 (Homo sapiens, UniProt O95819)",99.8%
"Cyclin-dependent kinase 4, with cyclin D3 (CDK4, Homo sapiens, UniProt P11802)",99%
"EPHB4 (Homo sapiens, UniProt P54760)",97.1%
"HIPK4 (Homo sapiens, UniProt Q8NE63)",98.4%

# Some of these lines once more (series 1):
target,remaining binding [%]
"EGFR (Homo sapiens, UniProt P00533, G719C)",85
"FES (Homo sapiens, UniProt P07332)",89
"STK17B (Homo sapiens, UniProt O94768)",100
